# Results gathered from unrelated publications.
# Observed: cell growth or viability
Structure (SMILES),cell line,technique,tested at,time,viability [%]
C=CCOc1ccc2c(C)c(CC)c(=O)oc2c1C,MDA-MB-231,MTT,62.5 µg/mL,,99.4
COc1ccc(NC(=O)c2c(Nc3ccccc3)sc(C#N)c2NC(=O)CNc2ccc(O)cc2)cc1,HCT-116,SRB,10 µM,48 h,69.4
CC(=NNC(=O)c1ccc(N)cc1)c1ccc(Nc2nnc(-c3ccc(Cl)cc3)c3ccccc23)cc1,HepG2,MTT,5 µM,24 h,15.8
Cc1c(Cc2ccccc2)c(=O)oc2c(C)c(OCC(=O)NN=Cc3ccco3)ccc12,MDA-MB-231,MTT,125 µg/mL,,4.73
CC(=NNC(=S)Nc1ccccc1)c1ccc(Nc2nnc(-c3ccc(Cl)cc3)c3ccccc23)cc1,HepG2,MTT,5 µM,24 h,4.93
Cc1ccc(C(CS(=O)(=O)c2ccccc2)=NNc2nc(C)c(N=Nc3cccc(C)c3)s2)cc1,SK-MEL-23,MTT,6.3 µM,48 h,50
COc1ccc(NC(=O)c2c(Nc3ccccc3)sc(C(=O)NN=Cc3ccc(Br)cc3)c2NC(C)=O)cc1,HepG2,SRB,1 nM,48 h,101
CC(=NNC(=O)c1ccccc1Cl)c1ccc(Nc2nnc(-c3ccc(Cl)cc3)c3ccccc23)cc1,HepG2,MTT,5 µM,24 h,3.49
COc1ccc(NC(=O)c2c(Nc3ccccc3)sc(C#N)c2NC(=O)CNc2ccc(Br)cc2)cc1,HCT-116,SRB,1 µM,48 h,64.5
CCCOc1ccc2c(C)c(CC)c(=O)oc2c1C,MDA-MB-231,MTT,31.25 µg/mL,,99
O=C(Nc1ccc(Oc2nnc(-c3ccc(Cl)cc3)c3ccccc23)cc1)c1ccccc1,MCF7,MTT,10 µM,24 h,6.68
O=C(Nc1ccc(Oc2nc3ccccc3n3cnnc23)cc1)Nc1cccc(Cl)c1,MDA-MB-231,MTT,25 µM,24 h,52.4
COc1ccc(NC(=O)c2c(Nc3ccccc3)sc(C(=O)NN=Cc3ccc(C)cc3)c2NC(C)=O)cc1,HCT-116,SRB,1 nM,48 h,100
CC(C)(C)c1nc(-c2cccc(NS(=O)(=O)c3c(F)cccc3F)c2F)c(-c2ccnc(N)n2)s1,SK-MEL-23,MTT,6.3 µM,48 h,52.8
COc1ccc(NC(=O)Nc2ccc(-c3cn(Cc4ccc(Cl)cc4)nn3)cc2)cc1,Huh-7,CCK-8,50 µM,72 h,90.9
CC(=O)Nc1ccc(Oc2nnc(-c3ccc(Cl)cc3)c3ccccc23)cc1,HepG2,MTT,0.625 µM,24 h,11.7
CCNC(=S)NNC(=O)COc1ccc2c(C)c(CC)c(=O)oc2c1C,MDA-MB-231,MTT,31.25 µg/mL,,96.7
CNC(=O)c1cc(Oc2ccc(NC(=O)Nc3ccc(Cl)c(C(F)(F)F)c3)cc2)ccn1,HepG2,SRB,1 nM,48 h,100
CC(=NNC(=O)c1ccccc1O)c1ccc(Nc2nnc(-c3ccc(Cl)cc3)c3ccccc23)cc1,HepG2,MTT,10 µM,24 h,4.73
COc1ccc(NC(=O)Nc2ccc(-c3cn(Cc4ccc(Br)cc4)nn3)cc2)cc1,Huh-7,CCK-8,50 µM,48 h,85.1
COc1ccc(NC(=O)c2c(Nc3ccccc3)sc(C#N)c2NC(=O)CNc2ccc(C)cc2)cc1,HCT-116,SRB,10 µM,48 h,68.4

# Some of these lines once more:
Structure (SMILES),cell line,technique,tested at,time,viability [%]
C=CCOc1ccc2c(C)c(CC)c(=O)oc2c1C,MDA-MB-231,MTT,62.5 µg/mL,,99.4
COc1ccc(NC(=O)c2c(Nc3ccccc3)sc(C(=O)NN=Cc3ccc(C)cc3)c2NC(C)=O)cc1,HCT-116,SRB,1 nM,48 h,100
